Assay results from different studies.
Each line is one published result; not all experiments were run side by side. Several values in a cell are separate wells, animals, samples, runs or records. ± gives the spread as reported.

`CC1(C)C(NC(=O)C(=NOCC(=O)N2CC3CCCC3C2C(=O)O)c2csc(N)n2)C(=O)N1OS(=O)(=O)O` (stereo not drawn) gave an MIC of 1 µg/mL (Salmonella enterica Typhi; agar dilution; susceptible).
`CC1(C)CCC2(C(=O)NCc3ccccc3)CCC3(C)C(=CCC4C5(C)CCC(OC(=O)C6CC(OC(=O)c7ccc(F)c(F)c7)CN6C(=O)c6ccc(F)c(F)c6)C(C)(C)C5CCC43C)C2C1` (stereo not drawn) has an EC50 of 4.47 ± 0.67 µM (Influenza A virus; viral replication; MDCK, A/WSN/1933 (H1N1); 48 h).
For `Nc1c2c(nc3sc4c(c13)CCCCC4)CCCC2`, activity read “inactive” (Mycobacterium bovis BCG; concentration not given).
With `CC(C)CC(C(=O)N1CC2(CC1C#N)C(=O)Nc1ccccc12)N(C)C(=O)c1cc2c(F)cc(F)c(F)c2[nH]1` (stereo not drawn) the inhibition was 100% (human coronavirus NL63; viral replication; LLC-MK2; 0.05 µM).
`CCN(CC)C(=O)C12CCC(C)(C)CC1C1=CCC3C4(C)CCC(OC5OC(CO)C(OC6OC(C)C(O)C(O)C6O)C(O)C5OC5OC(C)C(O)C(O)C5O)C(C)(C)C4CCC3(C)C1(C)CC2` (stereo not drawn) gave an EC50 of > 50 µM (Influenza A virus; viral replication; MDCK, A/WSN/1933 (H1N1); 48 h).
`CCc1ccn2c(C(=O)NCc3ccc(C)cc3)c(C)nc2c1` has an inhibition zone of 0 mm (Bacillus subtilis; microbial growth; ATCC6633; 2 mM).
`CC1OC(OC2C(CO)OC(OC3CCC4(C)C(CCC5(C)C4CC=C4C6CC(C)(C)CCC6(C(=O)NCc6ccccc6)CCC45C)C3(C)C)C(OC3OC(C)C(O)C(O)C3O)C2O)C(O)C(O)C1O` (stereo not drawn) has a selectivity index of < 5 (Influenza A virus; MDCK, A/WSN/1933 (H1N1); relative to: CC50 over EC50).
`CC(=O)N[C@H]1[C@H]([C@H](O)[C@H](O)CO)OC(C(=O)O)=C(C/C=C/c2ccc(C)cc2)[C@@H]1O` gave an EC50 of 36 µM (Influenza A virus; viral replication; A/California/07/2009 (H1N1); 72 h).
For `Cc1cc(Oc2nc(N3CC[C@@H](c4ccncc4)C3)ncc2F)[nH]n1`, the normalised growth was 64.5% and 62.1% (Mycobacterium tuberculosis; THP-1, H37Rv non-replicating; 9.488 µM, day 4 plus 1).
`CCCC/C=C/C(=O)N[C@@H](Cc1csc2ccccc12)C(=O)N[C@H]1COC(=O)[C@@H]2C[C@@H](C)CN2C(=O)[C@H](C)NC(=O)[C@@H]2CCCCN2C(=O)[C@@H]2CCCN2C1=O` gave a virus titre of 34100 TCID50/mL and 50000 TCID50/mL (human coronavirus 229E; Huh-7; concentration not given).
`CCc1ccn2c(C(=O)NCc3ccccc3)c(C)nc2c1` gave an inhibition zone of 0 mm (Bacillus subtilis; microbial growth; ATCC6633; 2 mM, 20 h).
With `CC1(C)CCC2(C(=O)NCc3ccccc3)CCC3(C)C(=CCC4C5(C)CCC(OC(=O)C6CC(OC(=O)c7cccc(O)c7O)CN6C(=O)c6cccc(O)c6O)C(C)(C)C5CCC43C)C2C1` (stereo not drawn) the selectivity index was 117 (Influenza A virus; MDCK, A/WSN/1933 (H1N1); relative to: CC50 over EC50).
`Cc1ccc(-c2nc3ccc(C)cn3c2C(=O)C(=O)NCc2ccc(N(C)C)cc2)cc1` has an inhibition zone of 0 mm (Bacillus subtilis; microbial growth; ATCC6633; 2 mM, 20 h).
The MIC of `CC1(C)[C@H](NC(=O)/C(=N\OCC(=O)N2CCC[C@@H]2C(=O)O)c2nsc(N)n2)C(=O)N1OS(=O)(=O)O` is reported as 1 µg/mL (Salmonella enterica Typhi; agar dilution; susceptible).
For `CCc1ccn2c(C(=O)N(C)C)c(C)nc2c1`, the inhibition zone was 0 mm (Bacillus subtilis; microbial growth; ATCC6633; 2 mM, 20 h).
The inhibition of `Cc1ccc(N2CC3CC(C2)N3C)cc1C(=O)NC1(c2ccc3c4c(cccc24)C(=O)N3C)CC1` is reported as 100% (human coronavirus 229E; viral replication; Huh-7; 100 µM).
`CC1(C)[C@H](NC(=O)/C(=N\OCC(=O)N2CCC(C(=O)O)CC2)c2csc(N)n2)C(=O)N1OS(=O)(=O)O` has an MIC of 2 µg/mL (Salmonella enterica Typhi; agar dilution; susceptible).
The MIC of `CN[C@@H]1[C@H](O)[C@H](NC)[C@H]2O[C@]3(O)[C@H](O[C@@H]2[C@H]1O)O[C@H](C)C[C@H]3NC(=O)Cc1ccccc1` is reported as > 200 µg/mL (Burkholderia cepacia; microbial growth, broth dilution; ATCC25416).
For `CC1(C)CCC2(C(=O)NCc3ccccc3)CCC3(C)C(=CCC4C5(C)CCC(OC(=O)C6CC(OC(=O)c7ccc(OCc8ccccc8)c(OCc8ccccc8)c7)CN6C(=O)c6ccc(OCc7ccccc7)c(OCc7ccccc7)c6)C(C)(C)C5CCC43C)C2C1` (stereo not drawn), the selectivity index was > 6.51 (Influenza A virus; MDCK, A/WSN/1933 (H1N1); relative to: CC50 over EC50).
The MIC of `CN[C@@H]1[C@H](O)[C@H](NC)[C@H]2O[C@]3(O)[C@H](O[C@@H]2[C@H]1O)O[C@H](C)C[C@H]3NC(=O)Cc1cc(Cl)ccn1` is reported as 50 µg/mL (Mycolicibacterium fortuitum; microbial growth; ATCC6841).
`Oc1ccc(Br)cc1-c1nc2cc(C(F)(F)F)ccc2s1` — result for “genomic RNA level”: 0.603 and 0.823 and 1.03 (human coronavirus 229E; Huh-7; concentration not given, unit not given; relative to: DMSO).
For `Cc1ccc2nc(C)c(C(=O)C(=O)N(C)C)n2c1`, the MIC was > 128 µM (Mycobacteroides chelonae; microbial growth; 72 h).
`Cc1ccc(NS(=O)(=O)c2c(C(=O)N3CCCCCC3)c(C)n(C)c2C)c(Cl)c1` has an infection of 94.9% and 110% and 83.6% (Fowlpox virus; viral infection; CEF; 11.11 µM; relative to: untreated).
`Cc1ccc(CNC(=O)Cc2c(C)nc3ccc(C)cn23)cc1` has an inhibition zone of 0 mm (Bacillus subtilis; microbial growth; ATCC6633; 2 mM, 20 h).
The EC50 of `O=C(CCN(CCC(=O)N[C@@H](Cc1c[nH]c2ccccc12)C(=O)O)C(=O)CCN(CCC(=O)N(CCC(=O)N[C@@H](Cc1c[nH]c2ccccc12)C(=O)O)CCC(=O)N[C@@H](Cc1c[nH]c2ccccc12)C(=O)O)C(=O)[C@H]1C[C@@H](C(=O)N(CCC(=O)N(CCC(=O)N[C@@H](Cc2c[nH]c3ccccc23)C(=O)O)CCC(=O)N[C@@H](Cc2c[nH]c3ccccc23)C(=O)O)CCC(=O)N(CCC(=O)N[C@@H](Cc2c[nH]c3ccccc23)C(=O)O)CCC(=O)N[C@@H](Cc2c[nH]c3ccccc23)C(=O)O)C[C@@H](C(=O)N(CCC(=O)N(CCC(=O)N[C@@H](Cc2c[nH]c3ccccc23)C(=O)O)CCC(=O)N[C@@H](Cc2c[nH]c3ccccc23)C(=O)O)CCC(=O)N(CCC(=O)N[C@@H](Cc2c[nH]c3ccccc23)C(=O)O)CCC(=O)N[C@@H](Cc2c[nH]c3ccccc23)C(=O)O)C1)N[C@@H](Cc1c[nH]c2ccccc12)C(=O)O` is reported as 40 ± 0.2 µM (human coronavirus 229E; viral replication).
The MIC of `Cc1ccc(-c2nc3ccc(C)cn3c2CC(=O)NCc2ccc(N(C)C)cc2)cc1` is reported as > 50 µM (Mycobacteroides chelonae; microbial growth; 72 h).
With `CC(C)(O/N=C(\C(=O)N[C@@H]1C(=O)N(OS(=O)(=O)O)C1(C)C)c1nsc(N)n1)C(=O)O` the MIC was 32 µg/mL (Salmonella enterica Typhi; agar dilution; susceptible).

Repeated from above:
The MIC of `Cc1ccc(-c2nc3ccc(C)cn3c2CC(=O)NCc2ccc(N(C)C)cc2)cc1` is reported as > 50 µM (Mycobacteroides chelonae; microbial growth; 72 h).
For `Nc1c2c(nc3sc4c(c13)CCCCC4)CCCC2`, activity read “inactive” (Mycobacterium bovis BCG; concentration not given).
